Results pooled from the literature.
Each line is one published result; not all experiments were run side by side.
Cell line: THP-1

SMILES	test	test system	setting	how to read	quantity	value
COc1ccc(-c2cc(=O)c3c(O)c(OC)c(O)c(OC)c3o2)cc1O	antioxidant effect, OPT fluorometric glutathione, item: redox index GSH/total glutathione	cell extract	–	–	EC50	4.58 µM
COc1cc(/C=N/N2C(=O)c3ccccc3NC2c2cc(OC)c(O)c(OC)c2)cc(OC)c1O (stereo not drawn)	cell growth or viability, CCK-8	–	24 h	–	IC50	> 50000 nM
CC(C)C[C@@H]1NC(=O)[C@H](CC(C)C)NC(=O)[C@H](Cc2ccccc2)NC(=O)[C@@H]2CSSC[C@@H](C(=O)O)NC(=O)[C@H](CSSC[C@H](N)C(=O)N3CCC[C@H]3C(=O)N2)NC(=O)CNC1=O	cell adhesion	–	60 min, added: LLG-C4-GST substratum	–	IC50	20000 nM
O=C1c2ccccc2NC(c2ccc(Cl)c([N+](=O)[O-])c2)N1/N=C/c1ccc(Cl)c([N+](=O)[O-])c1 (stereo not drawn)	cell growth or viability, CCK-8	–	24 h	–	IC50	> 50000 nM
CC1CC(=O)N(CCCCCN)N=C1c1ccc(NC(=O)N2Cc3ccncc3C2)cc1 (stereo not drawn)	cell growth or viability, ATP luminescence	–	–	–	IC50	0.023 nM
C(=C/c1ccccc1)/c1ccccc1	apoptosis, Hoechst nuclear staining	–	24 h, 50% apoptosis induction	–	EC50	> 500 µM
Nc1nc2c(ncn2[C@@H]2O[C@@H]3COP(=O)(O)O[C@H]4[C@@H](F)[C@H](n5cnc6c(=O)[nH]cnc65)O[C@@H]4CSP(=O)(O)O[C@@H]2[C@@H]3O)c(=O)[nH]1	item: CXCL10	–	10 µM, 24 h	reference: untreated	mRNA level	~400 fold
O=C1c2ccccc2NC(c2ccc(O)c(O)c2)N1/N=C/c1ccc(O)c(O)c1 (stereo not drawn)	cell growth or viability, CCK-8	–	24 h	–	IC50	9500 nM
CC(C)C[C@H](NC(=O)[C@H](CO)NC(=O)[C@H](CCCNC(=N)N)NC(=O)[C@H](CCCCN)NC(=O)[C@@H](NC(=O)[C@@H](NC(=O)CNC(=O)[C@H](CCCNC(=N)N)NC(=O)[C@H](Cc1c[nH]cn1)NC(=O)[C@H](Cc1c[nH]c2ccccc12)NC(=O)[C@H](Cc1ccccc1)NC(=O)[C@H](Cc1c[nH]cn1)NC(=O)[C@H](Cc1ccc(O)cc1)NC(=O)[C@@H](N)Cc1ccc(O)cc1)C(C)C)[C@@H](C)O)C(=O)N[C@@H](CO)C(=O)N1CCC[C@H]1C(=O)N[C@@H](Cc1c[nH]cn1)C(=O)N[C@@H](CCCNC(=N)N)C(=O)N1CCC[C@H]1C(=O)N[C@@H](CCCNC(=N)N)C(=O)N[C@@H](Cc1c[nH]cn1)C(=O)N[C@@H](CO)C(=O)N[C@@H](CCCNC(=N)N)C(=O)O	IL-1β secretion, ELISA	–	30 µM, 4 to 12 h, added: LPS	–	inhibition	30%
CC1CC(=O)N(CCCCN)N=C1c1ccc(NC(=O)N2Cc3ccncc3C2)cc1 (stereo not drawn)	cell growth or viability, ATP luminescence	–	–	–	IC50	1.4 nM
COc1cc(O)cc(O)c1C(=O)/C=C/c1ccccc1	antioxidant effect, OPT fluorometric glutathione, item: redox index GSH/total glutathione	cell extract	–	–	EC50	5.39 µM
O=C1c2ccccc2NC(c2ccccc2O)N1/N=C/c1ccccc1O (stereo not drawn)	cell growth or viability, CCK-8	–	24 h	–	IC50	9800 nM
NCCCCCCN1N=C(c2ccc(NC(=O)N3Cc4ccncc4C3)cc2)CC(c2cccc3ncccc23)C1=O (stereo not drawn)	cell growth or viability, ATP luminescence	–	–	–	IC50	< 0.003 nM
Oc1ccccc1C1Nc2ccccc2C2=[O+][Cu-2]3([Cl])[O]c4ccccc4C=[N+]3N21 (stereo not drawn)	cell growth or viability, CCK-8	–	–	–	IC50	300 nM
C[C@@H]1CC(=O)N(C2CCOCC2)N=C1c1ccc(NC(=O)N2Cc3ccncc3C2)cc1	cell growth or viability, ATP luminescence	–	–	–	IC50	0.34 nM

Excerpt of the above:
SMILES	test	test system	setting	how to read	quantity	value
COc1cc(O)cc(O)c1C(=O)/C=C/c1ccccc1	antioxidant effect, OPT fluorometric glutathione, item: redox index GSH/total glutathione	cell extract	–	–	EC50	5.39 µM
O=C1c2ccccc2NC(c2ccccc2O)N1/N=C/c1ccccc1O (stereo not drawn)	cell growth or viability, CCK-8	–	24 h	–	IC50	9800 nM
